# Measurements from different studies.
# Values joined by “and” are separate records of one study, mostly repeats; a detail may differ.
# JAK1 JH1 kinase domain: Tyrosine-protein kinase JAK1, JH1 kinase domain (JAK1, Homo sapiens, UniProt P23458)
# JAK1: Tyrosine-protein kinase JAK1 (JAK1, Homo sapiens, UniProt P23458)
# JAK1 JH2 pseudokinase domain: Tyrosine-protein kinase JAK1, JH2 pseudokinase domain (JAK1, Homo sapiens, UniProt P23458)
# JAK1 JH1: Tyrosine-protein kinase JAK1, JH1 (JAK1, Homo sapiens, UniProt P23458)
# TDP1: Tyrosyl-DNA phosphodiesterase 1 (TDP1, Homo sapiens, UniProt Q9NUW8)
# Sequence of UniProt Q9NUW8 (whole entry, looked up): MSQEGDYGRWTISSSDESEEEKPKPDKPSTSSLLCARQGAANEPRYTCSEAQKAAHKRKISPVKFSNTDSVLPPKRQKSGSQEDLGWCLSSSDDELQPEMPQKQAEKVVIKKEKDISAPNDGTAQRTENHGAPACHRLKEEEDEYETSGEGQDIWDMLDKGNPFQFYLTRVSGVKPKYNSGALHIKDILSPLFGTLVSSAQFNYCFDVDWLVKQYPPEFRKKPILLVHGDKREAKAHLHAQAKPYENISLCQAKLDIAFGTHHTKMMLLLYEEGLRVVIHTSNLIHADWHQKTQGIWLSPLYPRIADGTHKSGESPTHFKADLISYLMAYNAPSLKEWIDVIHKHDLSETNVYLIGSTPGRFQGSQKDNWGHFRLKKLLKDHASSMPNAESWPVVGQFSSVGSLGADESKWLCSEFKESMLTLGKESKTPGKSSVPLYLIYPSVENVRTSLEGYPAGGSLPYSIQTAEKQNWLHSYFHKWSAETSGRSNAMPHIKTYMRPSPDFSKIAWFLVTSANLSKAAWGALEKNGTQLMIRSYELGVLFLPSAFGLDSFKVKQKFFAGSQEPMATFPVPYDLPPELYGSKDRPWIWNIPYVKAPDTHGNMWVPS
# JAK1 JH2: Tyrosine-protein kinase JAK1, JH2 (JAK1, Homo sapiens, UniProt P23458)
Compound,target,test,system,conditions,scale,endpoint,result
CNC1C[S+]2CC[S+]3CC[S+](C1)[Ru-4]321([N]=C=S)[n]2c3ccc(OC)cc3c3c4c(c5cc(F)c[n+]1c5c32)C(=O)NC4=O (stereo not drawn),JAK1 JH1 kinase domain,KinomeScan,,0.1 µM,reference: untreated,remaining binding,94%
COc1ccc(C(=O)/C=C/c2ccccc2-c2c[nH]c3ccc(C#N)cc23)c(O)c1,JAK1,"enzyme activity, inhibitor",,20 µM,,inhibition,-1%
C=CC(=O)N1CCc2ccc(-n3c(=O)ccc4cnc5ccc(-c6cnn(C)c6)cc5c43)cc21,JAK1 JH2 pseudokinase domain,KINOMEscan,,1 µM,reference: DMSO control,remaining binding,100%
Cc1ccc(-c2c(/C=C(\C#N)C(=O)NC(C)C)n(CCCO)c3ncnc(N)c23)cc1,JAK1 JH1,"cell-free assay, competition with immobilised ligand",,1 µM,,remaining binding,100%
Cc1nc2c(F)cc(-c3nc(Nc4ccc(CNC(=O)CCCCCCC(=O)NO)cc4)ncc3F)cc2n1C(C)C,JAK1 JH1,"enzyme activity, inhibitor",,1 µM,,inhibition,97%
Cc1cccc(O[C@H]2CCC[C@@H](C(C)CNCc3ccncc3)C2)c1 (relative stereo),JAK1,"kinase activity, kinome panel screening",,1 µM,,inhibition,-3%
Cc1cnc2nc1Nc1cccc(c1)COC/C=C/COCc1cc(ccc1OCCN1CCOCC1)N2,JAK1 JH1,cell-free assay,,0.1 µM,,remaining signal,8.5%
NC(=O)[C@@H](O)C[C@H]1CCc2sc3ncnc(O[C@H]4CC[C@H](N5CCOCC5)CC4)c3c21,JAK1,"enzyme activity, inhibitor",,10 µM,,inhibition,-11%
CCn1cc(C(=O)O)c(=O)c2c(N)c(F)c(NC3CCCCC3)cc21,JAK1 JH1 kinase domain,kinase activity,,"0.1 µM, together with: ATP at Km",,inhibition,-2.6%
CNC(=O)C[C@H](Cc1ccc(C#N)cc1)NC(=O)c1cc(-c2ccc(CN[C@H](C)c3ccc(C)cc3)o2)ccc1Cl,JAK1 JH1,"enzyme activity, inhibitor",,1 µM,,activity vs control,107%
COc1cc(Nc2nccc(-c3cnn4nc(OC)ccc34)n2)cc(C(F)(F)F)c1,JAK1 JH1,"binding, competition with immobilised ligand",,1 µM,,remaining binding,100%
Cc1nc(C2CCN(C(=O)OC(C)(C)C)CC2)sc1C=NOCc1ccc2nc(-c3ccccc3)c(Nc3ccc(C(=O)O)cc3)n2c1,TDP1,"enzyme activity, inhibitor",,"100 µM, unpurified compound",,inhibition,1.6%
C=CC(=O)N1CCCC(n2c(=O)c3ncccc3n(Cc3ccc(Oc4ccccc4)cc3)c2=O)C1 (stereo not drawn),JAK1 JH2,"binding, competition with immobilised ligand",,1 µM,,remaining binding,46%
Nc1ncc2c(n1)-c1c([nH]c3ccc(C4=CCOCC4)cc13)CCC2,JAK1 JH2,"binding, competition with immobilised ligand",,1 µM,,remaining binding,92%
COc1ccc(Br)c(C=NOCc2ccc3nc(-c4ccccc4)c(Nc4ccc(C(=O)O)cc4)n3c2)c1OC (mixture of isomers),TDP1,"enzyme activity, inhibitor",,"100 µM, unpurified compound",,inhibition,45.5%
CC(C)=CC1OC(C)(C)C2C=C3C(=O)C(Cl)=CC(O)C3C3C(O)C4OC4C(=O)C132 (stereo not drawn),JAK1 JH2,"cell-free assay, competition with immobilised ligand",,10 µM,,remaining binding,98%
C=CC(=O)N1Cc2nc(-c3cc(-c4cc(Cl)cnc4Cl)c(F)cc3F)n(-c3ccncn3)c2C1,JAK1,"cell-free assay, inhibitor",,1 µM,,inhibition,-0.3%
CCN1CCN(Cc2ccc(C(=O)Nc3ccc(C)c(NCc4cnc5[nH]ccc5c4OC)c3)cc2C(F)(F)F)CC1,JAK1 JH2,"binding, competition with immobilised ligand",,1 µM,,remaining binding,100%
C=CC(=O)Nc1cccc(-c2cnc3[nH]cc(C(=O)NC(C)(C)C)c3n2)c1,JAK1,kinase activity,,0.1 µM,,inhibition,5% and 4%
COc1cc(-n2cc3cc(F)cc(C(N)=O)c3n2)cc(Cl)c1C1CC(O)(CCO)Cc2ccccc21 (stereo not drawn),JAK1,"enzyme activity, inhibitor",,10 µM,,inhibition,4.45%
Cc1c[nH]c2nccc(-c3ccc(C(=O)N[C@@H]4c5c(F)cc(C(F)F)cc5C[C@@H]4O)cn3)c12,JAK1 JH1,"binding, competition with immobilised ligand",,3 µM,,remaining binding,32%
CNC(=O)C1CCN(c2cc(C)c(F)cc2NC(=O)c2ccc(-c3cc(O)ccc3C)c(C)c2)CC1,JAK1 JH1,"binding, competition with immobilised ligand",,1 µM,,remaining binding,100%
CS(=O)(=O)Nc1cccc(-c2csc3cnc(Nc4ccc(N5CCN(CCCCCOc6cccc7c6C(=O)N(C6CCC(=O)NC6=O)C7=O)CC5)cc4)nc23)c1 (stereo not drawn),JAK1 JH2 pseudokinase domain,"probe labelling, inhibitor, KiNativ chemoproteomics",MOLT-4,1 µM,,inhibition,3.55%
COc1c(Cl)cccc1Nc1c(-c2ccncc2C#C[C@@]2(C)CCCN2C(=O)/C=C/CN(C)C)[nH]c2c1C(=O)NCC2,JAK1,"binding, competition with immobilised ligand",,3 µM,,remaining binding,95%

# A few entries again:
Compound,target,test,system,conditions,scale,endpoint,result
CCN1CCN(Cc2ccc(C(=O)Nc3ccc(C)c(NCc4cnc5[nH]ccc5c4OC)c3)cc2C(F)(F)F)CC1,JAK1 JH2,"binding, competition with immobilised ligand",,1 µM,,remaining binding,100%
C=CC(=O)Nc1cccc(-c2cnc3[nH]cc(C(=O)NC(C)(C)C)c3n2)c1,JAK1,kinase activity,,0.1 µM,,inhibition,5% and 4%
Cc1ccc(-c2c(/C=C(\C#N)C(=O)NC(C)C)n(CCCO)c3ncnc(N)c23)cc1,JAK1 JH1,"cell-free assay, competition with immobilised ligand",,1 µM,,remaining binding,100%
